Measured values gathered from unrelated publications.
Numbered parts are unrelated; each lists some results of a single study.
UniProt Q8LAL2, sequence (whole entry, looked up): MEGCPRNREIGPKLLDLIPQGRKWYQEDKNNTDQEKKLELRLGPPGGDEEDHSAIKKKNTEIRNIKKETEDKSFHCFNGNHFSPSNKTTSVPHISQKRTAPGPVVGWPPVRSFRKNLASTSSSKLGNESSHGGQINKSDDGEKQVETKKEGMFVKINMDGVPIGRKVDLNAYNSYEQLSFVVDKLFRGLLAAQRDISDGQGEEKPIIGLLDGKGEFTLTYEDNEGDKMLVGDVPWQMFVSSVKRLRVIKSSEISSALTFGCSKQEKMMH
UniProt Q93WC4, sequence (whole entry, looked up): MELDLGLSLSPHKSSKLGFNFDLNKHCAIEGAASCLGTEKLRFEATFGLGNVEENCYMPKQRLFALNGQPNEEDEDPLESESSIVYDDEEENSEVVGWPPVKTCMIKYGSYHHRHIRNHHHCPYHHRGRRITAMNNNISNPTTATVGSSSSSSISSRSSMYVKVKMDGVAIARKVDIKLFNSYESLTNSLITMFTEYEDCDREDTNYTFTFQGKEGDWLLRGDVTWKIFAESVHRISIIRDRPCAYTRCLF
UniProt Q9ZTX9, sequence (whole entry, looked up): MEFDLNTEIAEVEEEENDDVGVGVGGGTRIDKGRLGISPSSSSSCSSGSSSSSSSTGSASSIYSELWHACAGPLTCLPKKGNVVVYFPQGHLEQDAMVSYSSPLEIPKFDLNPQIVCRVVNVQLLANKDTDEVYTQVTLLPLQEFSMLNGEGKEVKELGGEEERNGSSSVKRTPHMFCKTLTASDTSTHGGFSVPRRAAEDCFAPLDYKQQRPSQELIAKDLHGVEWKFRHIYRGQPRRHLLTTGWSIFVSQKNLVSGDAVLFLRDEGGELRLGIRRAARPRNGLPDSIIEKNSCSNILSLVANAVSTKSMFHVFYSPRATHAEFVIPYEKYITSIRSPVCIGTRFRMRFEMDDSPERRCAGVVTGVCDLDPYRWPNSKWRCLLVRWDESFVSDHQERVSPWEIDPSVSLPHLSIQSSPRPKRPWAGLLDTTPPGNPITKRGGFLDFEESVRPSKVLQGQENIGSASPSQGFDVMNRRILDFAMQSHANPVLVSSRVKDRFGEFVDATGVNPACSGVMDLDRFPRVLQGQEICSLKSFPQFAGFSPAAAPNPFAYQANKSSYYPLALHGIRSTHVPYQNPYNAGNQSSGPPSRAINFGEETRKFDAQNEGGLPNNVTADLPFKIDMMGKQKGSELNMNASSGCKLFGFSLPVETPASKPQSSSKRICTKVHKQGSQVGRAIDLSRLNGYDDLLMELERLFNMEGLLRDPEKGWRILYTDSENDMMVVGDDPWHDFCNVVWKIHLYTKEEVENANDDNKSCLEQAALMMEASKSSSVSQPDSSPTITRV
UniProt P93022, sequence (whole entry, looked up): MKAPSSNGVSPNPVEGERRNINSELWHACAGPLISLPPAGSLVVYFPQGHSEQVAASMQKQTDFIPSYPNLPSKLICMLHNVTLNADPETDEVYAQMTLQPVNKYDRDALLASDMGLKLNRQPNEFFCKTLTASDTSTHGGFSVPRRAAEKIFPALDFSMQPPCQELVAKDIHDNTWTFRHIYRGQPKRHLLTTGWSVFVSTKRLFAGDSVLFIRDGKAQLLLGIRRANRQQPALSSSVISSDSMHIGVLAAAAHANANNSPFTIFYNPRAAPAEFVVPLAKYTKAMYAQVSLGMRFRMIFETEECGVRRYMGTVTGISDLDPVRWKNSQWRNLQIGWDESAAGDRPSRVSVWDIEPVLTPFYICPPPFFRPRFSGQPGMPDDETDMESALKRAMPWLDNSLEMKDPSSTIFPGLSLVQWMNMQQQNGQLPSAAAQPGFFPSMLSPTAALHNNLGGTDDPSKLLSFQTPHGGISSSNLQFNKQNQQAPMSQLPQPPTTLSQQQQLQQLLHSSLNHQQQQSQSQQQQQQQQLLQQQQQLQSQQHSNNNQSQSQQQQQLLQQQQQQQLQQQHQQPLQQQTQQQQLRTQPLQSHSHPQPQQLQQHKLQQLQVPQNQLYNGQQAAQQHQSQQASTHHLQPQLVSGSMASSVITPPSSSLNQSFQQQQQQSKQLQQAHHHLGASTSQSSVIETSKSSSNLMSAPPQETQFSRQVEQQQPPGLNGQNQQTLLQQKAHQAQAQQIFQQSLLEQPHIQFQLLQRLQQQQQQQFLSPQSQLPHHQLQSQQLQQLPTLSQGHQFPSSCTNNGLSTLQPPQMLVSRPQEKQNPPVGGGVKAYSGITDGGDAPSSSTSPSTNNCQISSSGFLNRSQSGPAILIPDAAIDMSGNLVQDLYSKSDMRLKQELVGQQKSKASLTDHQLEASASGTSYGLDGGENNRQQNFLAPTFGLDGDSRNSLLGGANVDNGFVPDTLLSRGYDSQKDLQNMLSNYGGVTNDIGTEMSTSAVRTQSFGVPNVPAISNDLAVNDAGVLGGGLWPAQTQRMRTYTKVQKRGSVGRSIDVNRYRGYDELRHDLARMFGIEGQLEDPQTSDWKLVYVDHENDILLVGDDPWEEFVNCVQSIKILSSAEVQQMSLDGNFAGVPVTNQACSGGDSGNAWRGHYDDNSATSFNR
UniProt Q9M1R4, sequence (whole entry, looked up): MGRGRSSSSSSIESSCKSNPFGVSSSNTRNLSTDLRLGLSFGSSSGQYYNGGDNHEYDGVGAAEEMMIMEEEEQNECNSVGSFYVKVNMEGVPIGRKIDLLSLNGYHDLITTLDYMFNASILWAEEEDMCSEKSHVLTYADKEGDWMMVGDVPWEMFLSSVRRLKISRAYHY
UniProt Q9XED8, sequence (whole entry, looked up): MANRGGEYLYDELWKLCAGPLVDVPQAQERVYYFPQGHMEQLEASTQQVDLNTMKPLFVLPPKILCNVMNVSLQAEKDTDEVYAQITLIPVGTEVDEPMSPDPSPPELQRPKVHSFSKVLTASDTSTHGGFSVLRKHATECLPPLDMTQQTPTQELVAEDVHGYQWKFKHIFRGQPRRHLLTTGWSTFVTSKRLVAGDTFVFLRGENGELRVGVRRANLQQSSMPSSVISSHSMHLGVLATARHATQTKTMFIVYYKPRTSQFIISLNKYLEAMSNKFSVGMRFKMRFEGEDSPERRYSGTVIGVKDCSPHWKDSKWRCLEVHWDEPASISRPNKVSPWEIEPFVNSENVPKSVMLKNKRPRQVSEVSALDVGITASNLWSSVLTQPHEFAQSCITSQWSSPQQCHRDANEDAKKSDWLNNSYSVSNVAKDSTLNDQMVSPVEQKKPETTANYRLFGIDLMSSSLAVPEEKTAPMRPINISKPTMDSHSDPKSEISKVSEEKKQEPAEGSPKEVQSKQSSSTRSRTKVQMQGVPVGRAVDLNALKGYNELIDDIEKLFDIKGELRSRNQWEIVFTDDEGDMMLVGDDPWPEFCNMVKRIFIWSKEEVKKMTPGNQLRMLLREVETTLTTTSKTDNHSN
UniProt Q9ZTX8, sequence (whole entry, looked up): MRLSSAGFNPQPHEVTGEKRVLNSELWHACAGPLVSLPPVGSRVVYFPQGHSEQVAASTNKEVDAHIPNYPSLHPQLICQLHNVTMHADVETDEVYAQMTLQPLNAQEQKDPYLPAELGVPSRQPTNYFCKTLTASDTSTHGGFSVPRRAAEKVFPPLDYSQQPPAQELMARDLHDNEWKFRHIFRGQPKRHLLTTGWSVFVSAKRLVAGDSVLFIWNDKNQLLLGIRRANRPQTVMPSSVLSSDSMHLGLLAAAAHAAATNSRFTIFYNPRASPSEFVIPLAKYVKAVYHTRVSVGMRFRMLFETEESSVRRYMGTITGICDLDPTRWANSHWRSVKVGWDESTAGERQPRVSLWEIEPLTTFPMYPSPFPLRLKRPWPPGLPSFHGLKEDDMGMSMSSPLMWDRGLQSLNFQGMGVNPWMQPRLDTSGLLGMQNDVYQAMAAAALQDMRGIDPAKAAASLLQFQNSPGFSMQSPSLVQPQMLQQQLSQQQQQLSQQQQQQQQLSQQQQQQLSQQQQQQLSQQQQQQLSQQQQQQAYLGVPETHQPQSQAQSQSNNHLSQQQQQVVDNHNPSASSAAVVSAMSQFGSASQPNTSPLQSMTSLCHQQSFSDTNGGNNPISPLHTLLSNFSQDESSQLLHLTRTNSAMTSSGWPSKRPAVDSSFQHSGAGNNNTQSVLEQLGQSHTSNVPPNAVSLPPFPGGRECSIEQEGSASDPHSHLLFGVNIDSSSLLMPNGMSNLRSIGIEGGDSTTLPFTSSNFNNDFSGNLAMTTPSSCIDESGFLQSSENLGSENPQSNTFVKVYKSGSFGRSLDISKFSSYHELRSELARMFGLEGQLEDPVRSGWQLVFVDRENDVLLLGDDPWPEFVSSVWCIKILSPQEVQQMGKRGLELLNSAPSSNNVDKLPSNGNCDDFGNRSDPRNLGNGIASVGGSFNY

Sample 1
Target: Max dimerization protein 1, bHLH-zipper, MAX partner unstated (MXD1, Homo sapiens, UniProt Q05195, residues 56-136)
Technique: protein-binding microarray
Form: double-stranded DNA, one strand shown
Medium: in vitro
Tested at: not given
Notes: k-mer, scored over probes, only values ≥0.25
Direction: higher = stronger binding
Residues (chain): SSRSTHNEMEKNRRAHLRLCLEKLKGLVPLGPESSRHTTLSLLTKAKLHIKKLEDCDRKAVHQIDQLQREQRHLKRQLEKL
Oligonucleotide | E-score
GTGGCCAC | 0.289
GGTGGCCA | 0.25
ACGTGAGC | 0.262
ATGTGGGA | 0.343
ATGCGCAC | 0.299
ACACATTG | 0.356
AAGCATGG | 0.436
GTGTGATA | 0.257

Sample 2
Sequence: B1 (IAA19)
Technique: two-hybrid
Direction: higher = firmer interaction
B1: IAA19 (Arabidopsis thaliana, UniProt O24409); chain MEKEGLGLEITELRLGLPGRDVAEKMMKKRAFTEMNMTSSGSNSDQCESGVVSSGGDAEKVNDSPAAKSQVVGWPPVCSYRKKNSCKEASTTKVGLGYVKVSMDGVPYLRKMDLGSSQGYDDLAFALDKLFGFRGIGVALKDGDNCEYVTIYEDKDGDWMLAGDVPWGMFLESCKRLRIMKRSDATGFGLQPRGVDE
partner | conditions | scale | positive tests
ARF4 660-788 (Arabidopsis thaliana, UniProt Q9ZTX9) | – | baseline: out of 4 tests | 1
IAA29 (Arabidopsis thaliana, UniProt Q93WC4) | – | baseline: out of 4 tests | 0
ARF7 1030-1164 (Arabidopsis thaliana, UniProt P93022) | – | baseline: out of 4 tests | 2
ARF1 538-665 (Arabidopsis thaliana, UniProt Q8L7G0) | – | baseline: out of 2 tests | 0
ARF9 519-638 (Arabidopsis thaliana, UniProt Q9XED8) | weak activation fusion | baseline: out of 2 tests | 0
IAA26 (Arabidopsis thaliana, UniProt Q8LAL2) | – | baseline: out of 4 tests | 2
IAA30 (Arabidopsis thaliana, UniProt Q9M1R4) | weak activation fusion | baseline: out of 2 tests | 0
ARF6 790-935 (Arabidopsis thaliana, UniProt Q9ZTX8) | – | baseline: out of 4 tests | 2

Sample 3
Target: Eukaryotic initiation factor 4A-I (EIF4A1, Homo sapiens, UniProt P60842, residues 1-406, full length assumed)
UniProt P60842, sequence (whole entry, looked up): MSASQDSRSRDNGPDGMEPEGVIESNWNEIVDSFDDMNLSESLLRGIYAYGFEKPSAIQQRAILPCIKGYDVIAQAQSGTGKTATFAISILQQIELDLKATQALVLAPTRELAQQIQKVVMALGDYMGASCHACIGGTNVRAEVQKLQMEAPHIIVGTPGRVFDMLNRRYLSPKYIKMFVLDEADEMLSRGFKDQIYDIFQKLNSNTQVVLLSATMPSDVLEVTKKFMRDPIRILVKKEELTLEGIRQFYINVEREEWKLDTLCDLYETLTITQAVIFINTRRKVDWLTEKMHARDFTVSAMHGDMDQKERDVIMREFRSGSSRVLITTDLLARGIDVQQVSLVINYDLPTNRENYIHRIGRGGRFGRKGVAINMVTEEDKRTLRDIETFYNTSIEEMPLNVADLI
Technique: RNA Bind-n-Seq
Form: RNA
Medium: in vitro
Tested at: 90 pmol
Notes: 4-mer, random 30-nt RNA, single round
With: 3 µM iPr-DMDA-PatA, 2 mM ADP, 2 mM phosphate
Baseline: input library
Direction: higher = stronger binding
Oligonucleotide | 4-mer enrichment [fold]
CUGG | 0.73
UAAU | 1.32
CGCC | 0.746
UUAU | 1.21
UUAC | 1.13
GAUU | 1.21
UACU | 1.1
UGAU | 1.18

Further values, each from its own experiment
Sequence | target | test | system | conditions | quantity | result
LEYGANYFL | HLA class I histocompatibility antigen, A alpha chain, allele A*26:03 (Homo sapiens, UniProt P04439) | peptide-MHC binding | peptide | concentration not given | binding | inactive

Excerpt of the above (sample 3):
Oligonucleotide | 4-mer enrichment [fold]
CUGG | 0.73
UACU | 1.1
CGCC | 0.746
UUAU | 1.21
